Published values of several laboratories.
Compare with care: the assays were run in different laboratories.
Target: NAD-dependent protein deacetylase sirtuin-3, mitochondrial (SIRT3, Homo sapiens, UniProt Q9NTG7)
One construct used (Q9NTG7 1-399): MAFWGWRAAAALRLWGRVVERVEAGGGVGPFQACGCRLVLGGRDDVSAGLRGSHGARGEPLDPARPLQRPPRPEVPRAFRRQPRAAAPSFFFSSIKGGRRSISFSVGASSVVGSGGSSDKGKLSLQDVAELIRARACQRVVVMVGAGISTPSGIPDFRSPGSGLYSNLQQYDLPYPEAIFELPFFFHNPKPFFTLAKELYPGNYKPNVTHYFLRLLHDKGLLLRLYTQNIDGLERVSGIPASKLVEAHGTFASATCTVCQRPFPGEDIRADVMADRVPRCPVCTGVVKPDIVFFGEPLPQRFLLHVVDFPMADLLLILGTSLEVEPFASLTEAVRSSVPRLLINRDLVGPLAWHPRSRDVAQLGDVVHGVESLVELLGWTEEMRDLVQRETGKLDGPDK

| Structure (SMILES) | test | setting | IC50 [µM] |
| --- | --- | --- | --- |
| C#CC[C@H](NC(=O)[C@H](Cc1ccccc1)NC(=O)[C@H](CCSC)NC(=O)[C@H](CC(C)C)NC(=O)[C@H](CCCCNC(C)=S)NC(=O)[C@H](CCCCN)NC(=O)[C@H](Cc1c[nH]cn1)NC(=O)[C@H](CCCNC(=N)N)NC(=O)CCC1(C)N=N1)C(N)=O | enzyme activity, inhibitor | pH 7.5 | 4.6 |
| COC(=O)[C@H](C)NC(=O)[C@H](C)NC(=O)[C@H](CCCCNC(C)=S)NC(=O)c1ccc(C(=O)c2ccc(OC/C=C/Cn3cc(COCCOCCOc4cccc5c4C(=O)N(C4CCC(=O)NC4=O)C5=O)nn3)cc2)cc1 (stereo partly drawn) | enzyme activity, inhibitor, HPLC |  | 38.2 |
| CC(=S)NCCCC[C@H](NC(=O)[C@H](CCCNC(=N)N)NC(=O)[C@H](C)NC(=O)[C@@H](NC(=O)[C@H](CCC(N)=O)NC(=O)[C@@H](N)CCCCN)[C@@H](C)O)C(=O)N[C@@H](CO)C(=O)N[C@H](C(=O)NCC(=O)NCC(=O)N[C@@H](CCCCN)C(=O)N[C@@H](C)C(=O)O)[C@@H](C)O | enzyme activity, inhibitor, HPLC |  | 1 to 2 |
| COCCn1cc(COc2cccc(Cc3cnc(NC(=O)CSc4nc(C)cc(C)n4)s3)c2)nn1 | enzyme activity, inhibitor, fluorescence |  | > 100 |
| O=C(NO)c1ccc(Cn2sc3ccccc3c2=O)cc1 | enzyme activity, inhibitor |  | > 10 |
| CCCCCCCCCCCCCC(=S)NCCCC[C@H](NC(=O)[C@H](CCCNC(=N)N)NC(=O)[C@H](C)N)C(=O)N[C@@H](CO)C(=O)N[C@H](C(=O)O)[C@@H](C)O |  |  | 5.6 |
| CCCCCCCCCCCCNC(=S)NCCCC[C@H](NS(C)(=O)=O)C(=O)N[C@H](C)C(=O)N[C@@H](CCCNC(=N)N)C(N)=O | enzyme activity, inhibitor |  | 35 |
| Cc1cc(C)nc(SCC(=O)Nc2ncc(Cc3cccc4ccccc34)s2)n1 | enzyme activity, inhibitor, fluorescence |  | > 100 |
| CCCCCCCCCCCCCC(=S)NCCCC[C@H](NC(=O)CNC(=O)CN)C(=O)NCC(=O)O |  |  | > 50 |
| CC[C@H](C)[C@H](NC(=O)[C@@H](NC(=O)[C@H](CCCCN)NC(=O)[C@H](CCCNC(=N)N)NC(=O)[C@H](CC(C)C)NC(=O)[C@H](CC(C)C)NC(=O)[C@H](CCCNC(=N)N)NC(=O)[C@H](CCCNC(=N)N)NC(=O)[C@H](CCSC)NC(=O)[C@@H](NC(=O)[C@H](CCCCNC(C)=S)NC(=O)CNC(=O)[C@H](CO)NC(=O)[C@H](CCCNC(=N)N)NC(=O)[C@@H](NC(=O)[C@H](CCCCN)NC(=O)[C@@H]1CCCN1C(=O)[C@H](CC(C)C)NC(=O)[C@H](CCCNC(=N)N)NC(=O)[C@@H](N)CCCCN)[C@@H](C)O)C(C)C)[C@@H](C)CC)C(=O)O | enzyme activity, inhibitor, HPLC |  | ~5 |
| Cc1cc(C)nc(SCC(=O)Nc2ncc(Cc3cccc(OCc4cn(-c5ccc(Cl)cc5)nn4)c3)s2)n1 | enzyme activity, inhibitor, fluorescence |  | > 100 |
| CCCCCCCCCCCCCC(=S)NCCCC[C@H](NS(C)(=O)=O)C(=O)N[C@@H](C)C(=O)N[C@@H](CCCNC(=N)N)C(N)=O | enzyme activity, inhibitor |  | 2 |

For quick reference, copied from above:
| Structure (SMILES) | test | setting | IC50 [µM] |
| --- | --- | --- | --- |
| Cc1cc(C)nc(SCC(=O)Nc2ncc(Cc3cccc4ccccc34)s2)n1 | enzyme activity, inhibitor, fluorescence |  | > 100 |
